Measurements from different studies.
Every numbered part comes from another study and shows a few of its results, in no order. Changes are numbered by the printed parent chain.

Set 1
Target: Interferon regulatory factor 7, full length, phosphomimetic (IRF7, Homo sapiens, UniProt Q92985, residues 1-503, S101K/S471D/S472D/S475D/S476D/S477D/S483D/S484D/S487D)
Method: protein-binding microarray
Molecule type: double-stranded DNA, one strand shown
Sample: in vitro
Tested at: 250 nM
Notes: 60-bp whole probe
With: salmon DNA 0.4 mg/ml
Reference: random background probes
Reading: higher = stronger binding
All sequences stand within: GCCTAGCAC … GTCTTGATTCGCTTGACGCTGCTG
Residues (chain): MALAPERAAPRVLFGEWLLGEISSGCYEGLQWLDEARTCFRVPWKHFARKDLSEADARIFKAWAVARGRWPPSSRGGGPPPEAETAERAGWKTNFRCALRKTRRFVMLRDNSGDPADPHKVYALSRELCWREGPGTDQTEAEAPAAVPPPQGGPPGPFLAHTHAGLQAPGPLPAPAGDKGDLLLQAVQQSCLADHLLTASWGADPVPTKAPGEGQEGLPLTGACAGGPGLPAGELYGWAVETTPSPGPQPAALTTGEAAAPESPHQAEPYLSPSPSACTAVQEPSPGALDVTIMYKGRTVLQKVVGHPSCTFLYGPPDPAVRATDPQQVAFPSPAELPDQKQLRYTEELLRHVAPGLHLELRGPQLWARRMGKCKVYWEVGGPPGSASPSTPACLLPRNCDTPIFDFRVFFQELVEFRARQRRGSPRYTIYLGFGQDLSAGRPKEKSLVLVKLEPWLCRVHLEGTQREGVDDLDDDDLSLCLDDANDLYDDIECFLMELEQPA
| Oligonucleotide | log fluorescence [z-score] |
| --- | --- |
| GACGATTTCAGACTGGAGTCGTGCTAG | 0.134 |
| TTAGGTCTCCTACCGCTTTAGTGCTAG | 0.0014 |
| TTAGATCTCAGTTTCGTTTAGTGCTAG | 9.01 |
| CCATCGATTTCTCTTTCCCAAGTGCTA | 1.26 |
| GACAATTTCGGGTTTCGAGACGTGCTA | 5.05 |
| GACGATCTCGGGACTGGAGACGTGCTA | -0.357 |
| GACGGACTCGACTTTCGGGACGTGCTA | 1.79 |
| GACAGTATCGGTTTCGGGACGTGCTAG | 6.46 |
| TTAAGTATCCTTTTCCTTTAGTGCTAG | 1.69 |
| GGATGTGTCTTAAATAGGGGAGTGCTA | -0.323 |
| TTAGATATCAGTTTCTATTAGTGCTAG | 3.34 |
| GACAGTATCGGGACTGGGGACGTGCTA | -0.068 |
| TCCAGGGCGGTGGGTGGCCCGTGCTAG | -1.2 |
| TTATGTATCGGTCTCGGTTAGTGCTAG | 1.86 |
| TTAGATAACAGACTGGATTAGTGCTAG | -0.143 |
| GACGAACTGGGGTTTGGAGACGTGCTA | -0.43 |
| TCATTTCTCTGTTCTAGACTGTGCTAG | 2.81 |
| GACGGTATCGACACTGGAGACGTGCTA | -0.256 |
| GACGGTATCGGGTTTCAGGACGTGCTA | 1.65 |
| TCAAATTTTCAATTCCTACTGTGCTAG | 0.462 |
| GACGATCTCCTTATCCTGACGTGCTAG | -0.0129 |
| GAAGGTATCCTTTTCCTGACGTGCTAG | 1.31 |
| TTAGATCCCAGACTGGATTAGTGCTAG | 0.173 |
| TTATGTTTCGGGTTTCGGTTAGTGCTA | 9.78 |
| GACGGTATCGGTCTCGGGCCGTGCTAG | 0.24 |

Set 2
Target: RNA binding protein fox-1 homolog 2, RRM domain, GST-SBP tag (RBFOX2, Homo sapiens, UniProt O43251-10, residues 100-194)
Method: RNA Bind-n-Seq
Molecule type: RNA
Sample: in vitro
Tested at: 365 nM
Notes: natural RNA segment, single round, ends assumed
Reference: no-protein control
Reading: higher = stronger binding
All sequences stand within: GGGAGUUCUACAGUCCGACGAUC … UGGAAUUCUCGGGUGCCAA
Construct (chain): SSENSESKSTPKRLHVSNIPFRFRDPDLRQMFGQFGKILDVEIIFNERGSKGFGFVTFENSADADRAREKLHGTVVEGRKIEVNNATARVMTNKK
| Oligonucleotide | RBNS enrichment (R) |
| --- | --- |
| UAGUUUGUUUCCUUGUUUGAGAGGUGUGCAUGCGACCGUGGCUUUUCCCAAAGUUUCUGACUUUGUGGUUUACCCCCUUCACCUUCCAGGGACGCAGUUGUUACGAGGUU | 14.2 |
| UGUUUUUCAUAGUUUAUAAUCUGAUGGCUAACUAACUUUCAAAACAGCUUUUAACUAAGUUUGUUGUAGGAGAAAUGACUGCGGUAAUUUCCAGUUCUAUAAUGUUUCAU | 0.579 |
| ACUUAUGAUACUCAUCCCAUGUCUCAAUAAGAGUGUCUUUUCUUUCUGGAUGUGUUCUCUUACUCCCUCUUACCACCAUACUUUUUGCUCUCUUCUCCUGCAAGCGUAGU | 0.817 |
| CUCCUGCUUUGGAUCUAACAGCUGAGUCCAGACAGGCUCCCCACAGGUCACCCUUGCACGGGUUUGGCCAACACCAUGAAGGAGUUGCCUUGGAGUUUCACCUGCAUAGC | 0.973 |
| UUACUUUAAGAUCUGUAGAAAUAAACCUAAGUUAAUUUUCCCCCAAAUCACGAGCAUCCGUGAUGGGGUAGCCAAGCUGUUAAGGUGGCAGGAGGCUGGUCAGCGUCGGG | 0.547 |
| CCAUCGAUGUACACAUUUGAUAUUUGUGCAGUAAAUAGACUGUACCUAUAAAAAAUUUUAUUGAUGUUUAUGGUCAUGUUAGCUAUCAGAGAGCUAUUGGAGUGAGAGCU | 0.586 |
| AUAUUUGCUCUAUUAACACAGAGGCUUACUAUAGAAAUCUAAAGUCAAUGCUGUACAUCCAUCCAGUUAGUGUAACUGAAGGGAAAUGUAACUUUGUGCUGAGUUAGACA | 0.283 |
| GAAGAUGUUUUGCGUUGCUACGUGAAUCAGUGGAUGACUCAUAUUUCACUUGCAUAUGAAAUAUAAGGCAGUUAACAUCUUGUUUGUGGCUUAAGCAAGGACAUUAAUCC | 0.645 |
| UCAAUUUGCAAGAUAAGUUAUGGGUCACAUGAACAGUCAUGGCAUUUAGCACGUUAUAGGAAAUUAUAAGAGAUUAUAACCAAAUGGAGCGUUAUUAACCCAAAGCAGAA | 0.636 |
| ACAAUUUAAGGUCUUUUCUAAACACGAUAGUUAUAAAUGUCCUUUUUAGAUCUUCUGGGGUAUGCACAGCUUUAAUGAAUUAAAUUUACUGGAAUCAAUUGAAAUAAGAG | 1.53 |
| UCAAGACUAGUCCACGAACGAGACCCGCCUUUUCUACACAGGAUCCAAGGUCACGAGAAGCAGCCAGAGUGCCCCGCCUCCGCCGGCUCUGGUCUGCCAUUCGCCAGUGC | 0.335 |
| UUGCCUUCCAGAAAGCCAUCUUUGGGCUACUGUAAUAUGACAAAUAAAAUCCUCACUGUGUGCAUCCUGAGUUGUGUGGUCGGUCUCUUUGUUUCUAAAUGGAGUGGGUA | 0.651 |

Set 3
Target: CCND3, cyclin fold, Cln2 fusion (human)
Method: yeast growth competition, sequencing
Sample: yeast
Notes: weak parent motif
Reference: not given
Reading: higher = stronger binding
Starting sequence: CUX1 docking peptide (human); SRIRRELFIEEIQ
| Variant | normalised enrichment score |
| --- | --- |
| I9A | 0.0116 |
| F8L | 0.0845 |
| E11A | 0.211 |
| L7A | 0.0646 |
| I3A | 0.171 |
| E10A | 0.156 |
| R5A | 0.0767 |

Set 4
Target: Histone acetyltransferase KAT6A, both winged helices, GST fusion (KAT6A, Homo sapiens, UniProt Q92794, residues 1-181)
Method: protein binding microarray
Molecule type: double-stranded DNA, one strand shown
Sample: in vitro
Tested at: not given
Notes: 8-mer, flanks averaged, mean of 2 arrays, mostly near background
Reference: not given
Reading: higher = stronger binding
Target sequence (chain): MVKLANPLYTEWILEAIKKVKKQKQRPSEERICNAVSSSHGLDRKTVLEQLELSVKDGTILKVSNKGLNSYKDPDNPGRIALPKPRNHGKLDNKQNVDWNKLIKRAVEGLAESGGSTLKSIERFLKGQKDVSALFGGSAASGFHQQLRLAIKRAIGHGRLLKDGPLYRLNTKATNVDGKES
| Oligonucleotide | E-score |
| --- | --- |
| CCCGTACG | 0.328 |
| CCCTATAA | -0.176 |
| CTTCACGA | -0.0644 |
| GATAAAAC | 0.151 |
| CGGCGAAG | 0.206 |
| CCCCAGTA | -0.172 |
| GACGAGGA | -0.176 |
| CGGGACCC | 0.225 |
| CATAGGAC | -0.0791 |
| GTCTGGAA | -0.111 |
| ACCTACGG | 0.0935 |
| GAACTGAC | -0.0135 |
| AGCGGCTA | 0.295 |
| CCCATGCC | -0.0384 |
| GATACTTA | -0.228 |
| GTGATCCA | 0.043 |
| ACGGTACA | 0.154 |
| AGGGGGAC | -0.187 |
| CTCCAGCC | -0.0631 |
| AGCCGGTG | 0.141 |
| CAGGAGCC | -0.0314 |
| GCCACGCA | 0.16 |

Set 5
Target: Sal-like protein 4, full length isoform B (SALL4, Homo sapiens, UniProt Q9UJQ4-2, residues 1-616)
Method: universal PBM
Molecule type: double-stranded DNA, one strand shown
Sample: in vitro
Tested at: not given
Notes: 8-mer, flanks averaged, mean of replicates
Reading: higher = stronger binding
Construct (chain): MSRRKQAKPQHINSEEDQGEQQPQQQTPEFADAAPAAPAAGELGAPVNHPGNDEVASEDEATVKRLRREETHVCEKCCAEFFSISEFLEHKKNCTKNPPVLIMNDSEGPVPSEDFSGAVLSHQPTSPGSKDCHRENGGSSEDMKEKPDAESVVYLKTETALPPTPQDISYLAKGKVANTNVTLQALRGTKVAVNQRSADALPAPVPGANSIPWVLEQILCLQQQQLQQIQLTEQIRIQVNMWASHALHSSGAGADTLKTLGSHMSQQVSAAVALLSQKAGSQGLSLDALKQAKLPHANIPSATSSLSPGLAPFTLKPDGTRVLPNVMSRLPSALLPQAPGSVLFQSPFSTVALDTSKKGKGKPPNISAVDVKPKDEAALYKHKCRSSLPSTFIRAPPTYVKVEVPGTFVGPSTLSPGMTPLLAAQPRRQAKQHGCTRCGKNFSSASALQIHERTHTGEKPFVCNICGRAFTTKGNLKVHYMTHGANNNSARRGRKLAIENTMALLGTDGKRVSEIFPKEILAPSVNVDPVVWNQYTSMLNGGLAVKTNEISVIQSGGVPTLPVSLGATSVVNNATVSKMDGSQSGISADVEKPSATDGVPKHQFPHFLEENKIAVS
| Oligonucleotide | E-score |
| --- | --- |
| GAGTCACC | -0.257 |
| AATGCAAG | 0.136 |
| TGCCGTAA | -0.0528 |
| AGGACCTG | -0.237 |
| AGCCACGC | -0.147 |
| AAGCGGGG | -0.115 |
| TAGTCAAA | 0.259 |
| AAGACTTA | 0.158 |
| CAGGTAGC | -0.208 |
| ACCGTCCA | -0.165 |
| GATTAAAC | 0.111 |
| TCGCAAAA | 0.142 |
| CAGCCTTA | -0.0571 |
| GACATGCA | 0.0715 |
| GGGAGACA | -0.254 |
| ATCGTCCG | -0.147 |
| AGTTGTAG | 0.0275 |
